Published values pooled from the literature.
Compare with care: the assays were run in different laboratories. ± marks the error that the study gave.
ABCB1: ATP-dependent translocase ABCB1 (ABCB1, Homo sapiens, UniProt P08183)
Sequence of UniProt P08183 (whole entry, looked up): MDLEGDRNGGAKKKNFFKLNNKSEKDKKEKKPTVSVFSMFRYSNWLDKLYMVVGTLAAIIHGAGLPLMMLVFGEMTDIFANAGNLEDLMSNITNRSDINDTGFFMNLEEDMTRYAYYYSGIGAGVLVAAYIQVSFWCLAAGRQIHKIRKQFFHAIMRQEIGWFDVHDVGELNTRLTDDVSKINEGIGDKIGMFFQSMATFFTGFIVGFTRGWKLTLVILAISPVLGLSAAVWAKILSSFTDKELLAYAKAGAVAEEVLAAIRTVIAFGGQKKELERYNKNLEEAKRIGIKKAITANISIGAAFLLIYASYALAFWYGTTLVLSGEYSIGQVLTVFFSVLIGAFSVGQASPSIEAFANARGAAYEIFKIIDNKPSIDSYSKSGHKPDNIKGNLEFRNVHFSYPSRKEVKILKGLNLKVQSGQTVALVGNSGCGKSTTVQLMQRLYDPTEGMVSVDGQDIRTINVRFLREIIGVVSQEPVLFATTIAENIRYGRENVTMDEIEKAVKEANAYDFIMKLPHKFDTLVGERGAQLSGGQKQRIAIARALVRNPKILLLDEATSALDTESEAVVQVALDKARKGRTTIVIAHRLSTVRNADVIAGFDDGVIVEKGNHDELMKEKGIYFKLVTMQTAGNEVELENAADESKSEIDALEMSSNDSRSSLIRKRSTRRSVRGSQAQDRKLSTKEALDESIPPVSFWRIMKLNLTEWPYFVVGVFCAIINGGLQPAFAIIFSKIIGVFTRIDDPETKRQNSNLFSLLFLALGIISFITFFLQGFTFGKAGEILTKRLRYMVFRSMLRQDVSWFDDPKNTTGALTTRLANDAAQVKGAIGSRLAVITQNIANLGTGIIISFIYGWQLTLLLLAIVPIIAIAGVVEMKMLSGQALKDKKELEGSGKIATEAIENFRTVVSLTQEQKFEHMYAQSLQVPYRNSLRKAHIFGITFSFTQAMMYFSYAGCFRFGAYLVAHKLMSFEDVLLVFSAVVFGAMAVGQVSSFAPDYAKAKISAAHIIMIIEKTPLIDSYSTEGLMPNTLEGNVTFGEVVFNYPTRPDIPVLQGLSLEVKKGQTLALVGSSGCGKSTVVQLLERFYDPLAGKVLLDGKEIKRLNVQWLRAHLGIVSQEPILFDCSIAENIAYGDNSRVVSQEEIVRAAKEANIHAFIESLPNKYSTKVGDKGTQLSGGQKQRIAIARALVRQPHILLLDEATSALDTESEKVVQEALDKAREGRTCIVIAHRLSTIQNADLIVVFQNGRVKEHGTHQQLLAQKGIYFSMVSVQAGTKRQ
ALB: Albumin (ALB, Homo sapiens, UniProt P02768)
Sequence of UniProt P11509 (whole entry, looked up): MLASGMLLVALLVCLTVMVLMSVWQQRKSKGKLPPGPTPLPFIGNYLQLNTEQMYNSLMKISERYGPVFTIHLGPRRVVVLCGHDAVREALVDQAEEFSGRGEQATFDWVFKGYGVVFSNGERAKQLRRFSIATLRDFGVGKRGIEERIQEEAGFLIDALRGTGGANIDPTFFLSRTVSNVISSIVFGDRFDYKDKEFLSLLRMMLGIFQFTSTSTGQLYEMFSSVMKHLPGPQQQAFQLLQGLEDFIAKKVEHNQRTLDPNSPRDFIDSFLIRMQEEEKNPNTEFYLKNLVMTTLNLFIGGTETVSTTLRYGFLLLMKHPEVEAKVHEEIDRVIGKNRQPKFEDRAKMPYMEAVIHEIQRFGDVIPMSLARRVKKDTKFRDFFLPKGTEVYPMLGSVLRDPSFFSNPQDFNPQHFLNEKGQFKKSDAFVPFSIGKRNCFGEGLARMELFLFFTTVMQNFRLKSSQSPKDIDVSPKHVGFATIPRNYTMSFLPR
Sequence of UniProt Q14994 (whole entry, looked up): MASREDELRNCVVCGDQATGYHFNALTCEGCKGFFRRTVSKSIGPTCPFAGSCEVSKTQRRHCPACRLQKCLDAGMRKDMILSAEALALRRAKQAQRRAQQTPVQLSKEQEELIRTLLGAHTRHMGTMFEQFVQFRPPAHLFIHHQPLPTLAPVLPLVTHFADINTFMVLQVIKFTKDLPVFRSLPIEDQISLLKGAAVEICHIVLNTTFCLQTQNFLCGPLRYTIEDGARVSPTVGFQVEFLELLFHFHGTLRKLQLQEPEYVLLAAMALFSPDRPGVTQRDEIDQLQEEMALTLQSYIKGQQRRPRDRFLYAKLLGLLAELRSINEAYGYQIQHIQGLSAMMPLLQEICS

Substance | target | test | system | conditions | how to read | endpoint | value
CO[C@H]1/C=C/O[C@@]2(C)Oc3c(C)c(O)c4c(O)c(c(/C=N/N5CCN(C)CC5)c(O)c4c3C2=O)NC(=O)/C(C)=C\C=C\[C@H](C)[C@H](O)[C@@H](C)[C@@H](O)[C@@H](C)[C@H](OC(C)=O)[C@@H]1C | OATP1B1 and OATP1B3 | rosuvastatin uptake, inhibitor | sandwich-cultured human hepatocytes | 50 µM, with: 0.5 µM [3H]rosuvastatin |  | inhibition | ~55%
Clc1cccc(-c2nc3sccn3c2CNCCc2ccc(Cl)c(Cl)c2)c1 | Nuclear receptor subfamily 1 group I member 3 (Homo sapiens, UniProt Q14994) | reporter gene, agonist | HepG2-CYP2B6 cells | unit not given | baseline: CITCO | Emax | 3.2
CCOC(=O)c1csc([C@@H](NC(=O)c2csc([C@@H](N)C(C)C)n2)C(C)C)n1 | ABCB1 | calcein-AM efflux, flow cytometry | HeLa transduced with BacMam ABCB1 | 20 µM, 10 min, 5% FBS, with: calcein-AM 0.5 µM | baseline: 1 µM tariquidar | inhibition | 55%
CC[C@H](C)[C@H](NC(=O)[C@H](Cc1ccc(O)cc1)NC(=O)[C@@H](NC(=O)[C@@H](N)CCCN=C(N)N)C(C)C)C(=O)N[C@@H](Cc1c[nH]cn1)C(=O)N1CCC[C@H]1C(=O)N[C@@H](Cc1ccccc1)C(=O)O | trypsin | substrate, LC-MS |  | 20 µM, 12 h, pH 7.4, with: Aβ1-28 10 µM, MINP(A) and MINP(β15-28) |  | peptide hydrolysed | 8.8 ± 2.1%
Cc1coc2c1CC[C@@H](C)C2 | Cytochrome P450 2A6 (CYP2A6, Homo sapiens, UniProt P11509) | enzyme activity, inhibitor |  | 20 µM, 10 min, 30 °C, preincubation with NADPH, with: coumarin 7-hydroxylation substrate | baseline: no NADPH control | remaining activity | 5 ± 1%
CCN(CC)C(=S)S | mitochondrial cytochrome P450 rat | inhibitor |  | 50 µM, 60 min, pH 7.4 |  | inhibition | 73%
COc1cccc(-c2cc3nc(-c4ccco4)cc(N4CCN(C(=O)c5ccoc5)CC4)n3n2)c1 | ABCB1 | JC-1 efflux, inhibitor | Jurkat-DNR |  |  | IC50 | 7.4 µM
CC(C)(C(=O)NCC(F)(F)C(F)(F)F)C(=O)N[C@@H]1C(=O)Nc2ccccc2-c2ccccc21 | ALB | equilibrium dialysis | human serum albumin 5 mg/mL in PBS | 500 ng/mL, 24 h, pH 7.4, mean |  | unbound fraction | 0.333
O=C(c1ccsc1)N1CCN(c2cc(-c3ccccc3)nc3cc(-c4cccc(Cl)c4)nn23)CC1 | ABCB1 | JC-1 efflux, inhibitor | Jurkat-DNR |  |  | IC50 | 3.97 ± 0.8 µM
CC[C@H](C)[C@H](NC(=O)[C@H](Cc1ccccc1)NC(=O)[C@H](CCC(=O)O)NC(=O)[C@H](CCCCNC(=O)COCCOCCNC(=O)COCCOCCNC(=O)CC[C@H](NC(=O)CCCCCCCCCCCCCCCCC(=O)O)C(=O)O)NC(=O)[C@H](C)NC(=O)[C@H](C)NC(=O)[C@H](CCC(N)=O)NC(=O)CNC(=O)[C@H](CCC(=O)O)NC(=O)[C@H](CC(C)C)NC(=O)[C@H](Cc1ccc(O)cc1)NC(=O)[C@H](CO)NC(=O)[C@H](CO)NC(=O)[C@@H](NC(=O)[C@H](CC(=O)O)NC(=O)[C@H](CO)NC(=O)[C@@H](NC(=O)[C@H](Cc1ccccc1)NC(=O)[C@@H](NC(=O)CNC(=O)[C@H](CCC(=O)O)NC(=O)C(C)(C)NC(=O)[C@@H](N)Cc1cnc[nH]1)[C@@H](C)O)[C@@H](C)O)C(C)C)C(=O)N[C@@H](C)C(=O)N[C@@H](Cc1c[nH]c2ccccc12)C(=O)N[C@@H](CC(C)C)C(=O)N[C@H](C(=O)N[C@@H](CCCNC(=N)N)C(=O)NCC(=O)N[C@@H](CCCNC(=N)N)C(=O)NCC(=O)O)C(C)C | ALB | binding |  | 14.8 µM, 2 h, with: 147 µM insulin icodec |  | unbound fraction | 78%
O=C(c1ccoc1)N1CCN(c2cc(-c3ccco3)nc3cc(-c4cccc(Cl)c4)nn23)CC1 | ABCB1 | JC-1 efflux, inhibitor | Jurkat-DNR |  |  | IC50 | 6.42 µM
liraglutide | ALB | equilibrium dialysis | Krebs-Henseleit buffer | 10 nM, pH 7.4, with: HSA 50 mg/mL |  | bound fraction | 99%
Cc1ccc(Nc2nccc(N(C)c3ccc4c(C)n(C)nc4c3)n2)cc1S(N)(=O)=O | ABCB1 | bidirectional transport | MDCK-MDR1 | 5 µM, 240 min, with: erlotinib 5 µM | baseline: B-A over A-B | efflux ratio | 1.1
COc1ccc(-c2cc(N3CCN(C(=O)c4ccoc4)CC3)n3nc(-c4cccc(Cl)c4)cc3n2)cc1 | ABCB1 | JC-1 efflux, inhibitor | Jurkat-DNR |  |  | IC50 | 4.12 ± 1.05 µM
